Results of several laboratories.
A part holds a random share of what one study measured. Positions count from the first letter of the parent shown.

Set 1 — Change: L91R; method: DHFR PCA, deep sequencing; sample: yeast; baseline: wild-type fitted maximum; direction: higher = stronger binding
Target: ABI1, truncated, D143A, DHFR fusion (Arabidopsis thaliana)
Notes: methotrexate growth selection, single substitutions
Starting sequence: PYL1, truncated, DHFR fusion (Arabidopsis thaliana); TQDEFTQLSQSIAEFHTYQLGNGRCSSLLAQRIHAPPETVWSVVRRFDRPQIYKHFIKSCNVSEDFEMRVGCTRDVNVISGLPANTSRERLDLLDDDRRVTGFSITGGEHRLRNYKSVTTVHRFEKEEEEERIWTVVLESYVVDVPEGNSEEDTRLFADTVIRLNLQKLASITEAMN
conditions	relative binding score [%]
with: (+)-ABA 0.0091 µM	-0.672
with: (+)-ABA 4.8 µM	14.6
with: (+)-ABA 58 µM	0.399
with: (+)-ABA 710 µM	11.6
with: (+)-ABA 0.032 µM	-3.32
with: (+)-ABA 1.4 µM	1.37

Other studies, line by line
P1: viral docking peptide; KKAKRRLFTISDS; partner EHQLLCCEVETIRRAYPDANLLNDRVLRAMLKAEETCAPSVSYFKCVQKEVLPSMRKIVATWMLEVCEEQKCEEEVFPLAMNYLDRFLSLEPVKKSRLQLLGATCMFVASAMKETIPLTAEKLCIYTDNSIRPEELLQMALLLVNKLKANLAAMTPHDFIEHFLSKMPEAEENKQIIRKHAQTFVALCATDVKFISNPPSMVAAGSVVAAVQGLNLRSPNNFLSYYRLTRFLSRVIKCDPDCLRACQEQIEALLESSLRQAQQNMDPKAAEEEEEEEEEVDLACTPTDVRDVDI
Molecule	target or system	assay	system	conditions	scale	quantity	result
FSAF1 (Homo sapiens, UniProt Q8NDD1)	DCAF13 (Homo sapiens, UniProt Q9NV06)	cross-linking MS	cell fractions	with: DSSO	–	cross-linked residues	Y211 to K49
PhoQ, residues 284 288 289 292 302 303 AGCYAI	PhoP, residues 12 14 15 18 19 LHSVW (Escherichia coli, UniProt P23836)	Sort-seq, refers to: YFP reporter	E. coli	PhoQ-PhoP variant library, with: 10 µM Mg2+	baseline: high Mg2+ state, higher = stronger signaling	fold induction	14.5
PSMA3 (Homo sapiens, UniProt P25788)	PSMA6 (Homo sapiens, UniProt P60900)	cross-linking MS	–	hits only	–	interaction screen	cross-linked
P1 L7A	CCND1, cyclin fold, Cln2 fusion (human)	yeast growth competition, sequencing	yeast	weak parent motif	baseline: not given, higher = stronger binding	normalised enrichment score	-0.188
PHB1 (Homo sapiens, UniProt P35232)	OCIAD1 (Homo sapiens, UniProt Q9NX40)	cross-linking MS	–	hits only	–	interaction screen	cross-linked
SRP54 (Homo sapiens, UniProt P61011)	SRP68 (Homo sapiens, UniProt Q9UHB9)	cross-linking MS	–	hits only	–	interaction screen	cross-linked

Some of these lines once more (other studies, line by line):
Molecule	target or system	assay	system	conditions	scale	quantity	result
PHB1 (Homo sapiens, UniProt P35232)	OCIAD1 (Homo sapiens, UniProt Q9NX40)	cross-linking MS	–	hits only	–	interaction screen	cross-linked
